Results gathered from unrelated publications.
Numbered parts are unrelated; each lists some results of a single study. Substitutions count along the parent as printed.

Series 1 — technique: universal PBM; form: double-stranded DNA, one strand shown; medium: in vitro; concentration: 600 nM; reading: higher = stronger binding
Target: Sal-like protein 4, full length isoform A (SALL4, Homo sapiens, UniProt Q9UJQ4, residues 1-1053)
Sequence of UniProt Q9UJQ4 (whole entry, looked up): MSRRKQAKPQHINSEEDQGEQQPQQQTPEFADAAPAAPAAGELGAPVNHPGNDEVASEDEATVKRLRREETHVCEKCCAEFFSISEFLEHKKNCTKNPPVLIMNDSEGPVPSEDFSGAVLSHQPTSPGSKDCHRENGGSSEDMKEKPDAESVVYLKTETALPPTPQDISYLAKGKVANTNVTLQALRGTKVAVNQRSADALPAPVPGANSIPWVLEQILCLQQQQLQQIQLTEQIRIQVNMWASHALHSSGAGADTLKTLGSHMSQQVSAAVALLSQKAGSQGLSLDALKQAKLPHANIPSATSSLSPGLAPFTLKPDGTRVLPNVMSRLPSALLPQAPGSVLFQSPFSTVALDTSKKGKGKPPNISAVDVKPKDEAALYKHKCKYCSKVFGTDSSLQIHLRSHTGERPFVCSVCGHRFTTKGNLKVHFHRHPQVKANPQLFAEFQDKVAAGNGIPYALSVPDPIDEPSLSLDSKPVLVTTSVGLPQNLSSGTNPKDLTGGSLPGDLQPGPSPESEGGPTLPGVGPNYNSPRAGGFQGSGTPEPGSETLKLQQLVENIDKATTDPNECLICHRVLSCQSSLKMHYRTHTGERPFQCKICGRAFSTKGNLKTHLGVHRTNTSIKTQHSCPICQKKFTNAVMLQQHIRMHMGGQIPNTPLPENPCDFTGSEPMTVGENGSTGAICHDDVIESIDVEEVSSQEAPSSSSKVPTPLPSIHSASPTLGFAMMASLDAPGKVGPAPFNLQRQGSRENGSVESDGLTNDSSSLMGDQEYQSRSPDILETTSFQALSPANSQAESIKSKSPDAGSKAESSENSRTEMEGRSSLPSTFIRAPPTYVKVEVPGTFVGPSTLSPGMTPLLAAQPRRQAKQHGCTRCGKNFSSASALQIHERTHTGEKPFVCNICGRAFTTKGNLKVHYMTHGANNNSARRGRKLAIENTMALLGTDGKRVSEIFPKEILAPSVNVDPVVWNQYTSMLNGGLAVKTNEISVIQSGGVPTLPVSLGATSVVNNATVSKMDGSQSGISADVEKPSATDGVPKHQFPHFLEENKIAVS
Setting: 8-mer, flanks averaged, mean of replicates
With `CTTTGCCC` the E-score was -0.25.
For `AACAGCCA`, the E-score was 0.107.
For `ACACTTGG`, the E-score was 0.0617.
With `AGCGGATG` the E-score was -0.268.
With `ACCATGCT` the E-score was -0.0931.
`GTCAATGA` gave an E-score of 0.0854.
`GAGTAGAA` has an E-score of 0.122.
`CTCCCTGA` has an E-score of -0.165.
`ATCTCCTG` gave an E-score of 0.0641.
`ATCTAGAT` gave an E-score of 0.107.
With `ACGGTCTG` the E-score was -0.171.
The E-score of `TCCCCGAA` is reported as -0.136.
The E-score of `TGTTCAAA` is reported as 0.166.
`GTTAGAAA` has an E-score of 0.173.
For `AATCAAGC`, the E-score was 0.0868.
The E-score of `ATGTGTAA` is reported as 0.266.
For `GCAGCTAC`, the E-score was -0.12.
The E-score of `GCGATGTA` is reported as 0.0866.

Series 2 — target: CCND2, cyclin fold, Cln2 fusion (human); technique: yeast growth competition, sequencing; medium: yeast; setting: weak parent motif; reference: not given; reading: higher = stronger binding
Parent: FOXM1 docking peptide (human); PHLARPIKVESPP
`R5A`: “normalised enrichment score” -0.228.
`K8A` — result for “normalised enrichment score”: -0.231.
`E10A`: “normalised enrichment score” -0.0082.
Under “normalised enrichment score”, `V9A` is recorded as 0.192.
For `P6A`, “normalised enrichment score” read -0.225.
`P12A` — result for “normalised enrichment score”: -0.74.

Series 3 — technique: RNA Bind-n-Seq; form: RNA; medium: in vitro; concentration: 1 µM; setting: whole 134-nt RNA, ends assumed; with: 150 mM KCl; reference: input library; reading: higher = stronger binding
Target: Ras GTPase-activating protein-binding protein 1, C-terminal RGG region (G3BP1, Homo sapiens, UniProt Q13283)
Sequence of UniProt Q13283 (whole entry, looked up): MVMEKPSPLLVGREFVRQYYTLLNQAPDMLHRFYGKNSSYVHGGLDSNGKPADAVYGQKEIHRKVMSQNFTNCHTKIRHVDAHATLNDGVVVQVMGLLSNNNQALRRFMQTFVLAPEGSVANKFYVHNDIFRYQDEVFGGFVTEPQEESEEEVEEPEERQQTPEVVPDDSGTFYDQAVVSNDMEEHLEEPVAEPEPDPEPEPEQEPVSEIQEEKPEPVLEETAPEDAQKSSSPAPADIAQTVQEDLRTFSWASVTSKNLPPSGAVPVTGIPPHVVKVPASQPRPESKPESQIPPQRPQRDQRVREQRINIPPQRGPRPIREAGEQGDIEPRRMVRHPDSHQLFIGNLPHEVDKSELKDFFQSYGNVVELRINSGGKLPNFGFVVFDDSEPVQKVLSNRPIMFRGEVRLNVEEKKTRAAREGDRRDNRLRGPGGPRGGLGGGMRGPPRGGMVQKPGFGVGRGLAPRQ
`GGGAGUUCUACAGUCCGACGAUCCUCAAGUCCUGUGCUACACAUCGUAUGUACCGAAUCGGGGUGGGUGGGGUGGGGAAAGUAUUAUGUUACGCCGUUCGGAUCUGCACUUCCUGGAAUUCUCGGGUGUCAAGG` has a log2 enrichment of 1.39.
With `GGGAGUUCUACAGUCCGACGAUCAAGUCCUGUGCUACACAUCGUAUGUACCGAAUCGGAGGAAAAAAAGGUUUUUUUGGAAAGUAUUAUGUUACGCCGUUCGGAUCUGCACUUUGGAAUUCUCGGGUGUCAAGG` the log2 enrichment was -2.12.
For `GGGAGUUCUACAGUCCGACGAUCUGGAGCACAGGGCGAGCUCUCCUCCGCCCUGCAGCCUCAGGUAAGGAUCCGGACCUUCACUGCUGCCCCAACUGGGGCUCCUCAGCUCGGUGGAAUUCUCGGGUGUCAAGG`, the log2 enrichment was -0.83.
The log2 enrichment of `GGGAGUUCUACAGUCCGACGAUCCACAGACAACACGCACCCACCCAGACACAGAGGGAAGGGGUUGGGAUGGGGACAGGGUGCACAGCAGGGCGGGGUAGGACCCCAGCCCCUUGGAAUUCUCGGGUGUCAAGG` is reported as -0.165.
The log2 enrichment of `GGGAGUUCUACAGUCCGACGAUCAGUCCUGUGCUACACAUCGUAUGUACCGAAUCGGGAAAAAGGGAGGGAAAAAAAGGGAAAGUAUUAUGUUACGCCGUUCGGAUCUGCACUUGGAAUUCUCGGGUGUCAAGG` is reported as 0.139.
With `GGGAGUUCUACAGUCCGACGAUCUUCAUUCCCAAGGGAGGCCAUGUCUGGAGAUAGACCUUGAAUUUAAUAAAUUUUAGGCACUAUACCAUUUCAGUGGAGAAAAUUGUUGGGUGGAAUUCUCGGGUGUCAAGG` the log2 enrichment was -2.13.
With `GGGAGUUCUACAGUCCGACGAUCAAGUCCUGUGCUACACAUCGUAUGUACCGAAUCGGAAAAGGAAAAGGGAAAAGGGGAAAGUAUUAUGUUACGCCGUUCGGAUCUGCACUUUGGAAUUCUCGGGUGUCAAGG` the log2 enrichment was -1.6.
`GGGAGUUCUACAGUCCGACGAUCCACAGACAACACGCACCCACACAGAUACAGAGGGAAGGGGUUGGGAUGGGGACAGGGUGCACAGCAGGGCGGGGUAGGACCCCAGCCCCUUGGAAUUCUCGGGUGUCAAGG` gave a log2 enrichment of -0.00531.
For `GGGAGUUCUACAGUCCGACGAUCUUUUAUGUGGAGUUAUGAAGACCUACAGGCAGAGAGAGAAACAGGGGAGCAAGGUGCAAGAGUCCACAAAGGGACCUGAUGAAGCGAAGAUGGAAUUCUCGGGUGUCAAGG`, the log2 enrichment was -0.745.
With `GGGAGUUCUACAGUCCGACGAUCUCCUCAAGUCCUGUGCUACACAUCGUAUGUACCGAAUCGGAGGAGGGAGGGGAAAGUAUUAUGUUACGCCGUUCGGAUCUGCACUUCCAGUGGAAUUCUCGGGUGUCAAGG` the log2 enrichment was -0.262.
With `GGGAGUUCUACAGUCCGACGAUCGCAGGAAGUAAAAACAAAUGGAAGUGCUUCGGAUAGUGGCAGGGGUGGGGGUUGCUAAGGAAAGGGUGGGAUGGGAGUGGGUAAAGAGUUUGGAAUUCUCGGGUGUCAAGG` the log2 enrichment was 2.53.
`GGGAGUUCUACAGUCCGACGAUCGUCCUGUGCUACACAUCGUAUGUACCGAAUCGGAAAAAGGUUUUUUUGGAAAAAAAGGAAAGUAUUAUGUUACGCCGUUCGGAUCUGCACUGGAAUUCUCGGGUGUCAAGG` has a log2 enrichment of -2.15.
`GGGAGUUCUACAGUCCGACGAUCUAACUUUAGAGGAGGAUCUGAUGGAUAUGGCAGUGGAUGUGGAUUUGGGGAUGGCUAUAAUGGGUAUGGAGGAGGACCUGGAGGUGGCAAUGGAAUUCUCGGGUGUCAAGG` has a log2 enrichment of -1.23.
`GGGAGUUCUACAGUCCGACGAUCAAGUCCUGUGCUACACAUCGUAUGUACCGAAUCGGAAAGGAAAAAGGAAAAAAAGGAAAGUAUUAUGUUACGCCGUUCGGAUCUGCACUUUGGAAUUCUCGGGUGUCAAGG` gave a log2 enrichment of -2.

Series 4 — technique: RNA Bind-n-Seq; form: RNA; medium: in vitro; concentration: not given; setting: RNA with constant flanks, ends assumed; reference: input RNA pool; reading: higher = stronger binding
Target: RING finger protein unkempt homolog, zinc fingers 1-6, GST-SBP tag (UNK, Homo sapiens, UniProt Q9C0B0, residues 30-357)
Sequence of UniProt Q9C0B0 (30-357, looked up): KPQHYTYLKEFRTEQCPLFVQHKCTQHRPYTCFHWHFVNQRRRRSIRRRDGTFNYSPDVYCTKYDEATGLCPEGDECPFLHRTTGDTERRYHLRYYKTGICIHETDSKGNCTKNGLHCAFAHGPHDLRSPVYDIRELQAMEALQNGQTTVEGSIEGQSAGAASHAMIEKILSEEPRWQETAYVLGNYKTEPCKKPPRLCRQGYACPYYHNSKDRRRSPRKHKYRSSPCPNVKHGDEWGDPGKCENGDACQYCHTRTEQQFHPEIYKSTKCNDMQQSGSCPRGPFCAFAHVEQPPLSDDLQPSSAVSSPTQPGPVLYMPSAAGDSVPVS
The bound/input enrichment of `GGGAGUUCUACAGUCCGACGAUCCCGGAGCAAAUUUUUCAGAACAUAAAACAAGAAUAUAGUCGUUAUCAGAGGUGGAGACAUUCCGAAGUUGUUCUUAAUCAGAGUGAAGCUUGUGCUUCGGAAAGUCAACCUCACUCCUCACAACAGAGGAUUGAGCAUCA` is reported as 1.17 ratio.
`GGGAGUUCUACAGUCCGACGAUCGGGAAUCCUGCUUGUUCGGCCCAGUUGCAGCAUGUCUCGCCACCCAUUUUUCCAGCUCAUUCCGCAAGUGUGUCAACUCCAUUGUUGUCCUCAAUGGAAAGUGUCAUAAAUCCAAAUAUACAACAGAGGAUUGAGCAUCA` gave a bound/input enrichment of 0.252 ratio.
`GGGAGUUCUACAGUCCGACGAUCUUUGCAGUUUAUGACGGUCAUGCUGGAUCCCGAGUGGCAAAUUACUGUUCAACACAUCUAUCCGAACACAUCACCACCAAUGAAGACUUCAGGGCAGCUGACAAAUCAGGCUCUGCUCUCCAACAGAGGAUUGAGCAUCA` has a bound/input enrichment of 0.184 ratio.
`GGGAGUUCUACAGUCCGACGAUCAGUAAAGUUGACAAUAAAACCAGAGUUUCUAUCUAUCUGAUUUUUUUUUUUUUUUAAUUGCCGUUGCACUUGUAGAUCAGAUUAUCAGAGGCAGGAGCACUCCCGGAUUGGAGCAUACUUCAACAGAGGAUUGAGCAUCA` gave a bound/input enrichment of 1.41 ratio.
`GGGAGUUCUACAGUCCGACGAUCAAUGAAGUGGUUCAAUCUGGAAGAAAGACUAAGCCCAUUAUUCCAGAGAUGUGUUUUAUUUACCGUGAAGAAAAUGUAGACUAUUCCCCCCCAAAUGCCUUCCUUGAAGAAGAUGGAACACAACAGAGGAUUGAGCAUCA` has a bound/input enrichment of 0.205 ratio.
For `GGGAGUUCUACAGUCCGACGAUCUAUCUUAUAUUGCAUCUCAUCUCUACAGUGUAUACAAGAAGAGAUGUACUUCCUCCCGGAAAAUUUACAGUUAACCUGAGUGGUUGCCCGCAGAACAGUACCUUCACGGAACACCUCUACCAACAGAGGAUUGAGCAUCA`, the bound/input enrichment was 0.357 ratio.
`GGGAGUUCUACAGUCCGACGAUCGGUGGUACCCUAGACCUGACCUUGAUUCGUGCUCGCCUCCAAGAGAAGCUGUCACCUCCUUACCGCUCCCCCCAGGAGUUUGCUCAAGAUGUGGGCCGCAUGUUCAAACAGUUCAACAAGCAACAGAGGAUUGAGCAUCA` gave a bound/input enrichment of 0.4 ratio.
With `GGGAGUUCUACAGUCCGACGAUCAAGACAUACGGGGAGCCUGAGUCUGUGGGCAUGUCCAAGAGCUUCCGCCAGCCGGGGACCUCACUUGCCGAUGCUGAUACCUUCCAUCACCAGGUGCGUGAUGACAUUUUCUCUUCUUUACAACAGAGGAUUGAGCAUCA` the bound/input enrichment was 0.14 ratio.
`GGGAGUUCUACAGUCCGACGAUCCAACUGUUGUGAUGAAAAUGGCACCAGGAAGAAGGCUCUAUUUUUCCACUGAAGUUGAAGAUCCGUAAAAUGGUGUCAGAUGGUGACCCUGCUCGCACGCUUUAGUAAUUUUUUAAAGUGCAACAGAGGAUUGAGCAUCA` has a bound/input enrichment of 1.46 ratio.
`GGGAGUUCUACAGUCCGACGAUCUGAAUAUUAUACUUCUUUAUUCACAGUAUCUGUGUCUCCUGCACCCUUUGGUGUUGCAAUUUCCGAUAUGUGAAAGUAGAUGUUAGCAGGGUUCUCUCCCUAUUUAAAAAAAAUACAUUACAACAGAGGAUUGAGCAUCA` gave a bound/input enrichment of 2.71 ratio.
For `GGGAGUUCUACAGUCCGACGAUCAAUGAACACUUCAAUGUGUUCCUCACUGCUAAGGACCUGAAUGCCUACAAGAAGCAAGGGACCGCAUUGCUGAGCAGAGUGGGUGAGUCAGUCAAGCACGUCACCGGAGGCUAUAAGCUGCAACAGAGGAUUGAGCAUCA`, the bound/input enrichment was 0.109 ratio.

Series 5 — technique: DHFR PCA, deep sequencing; medium: yeast; with: (+)-ABA 58 µM; reference: wild-type fitted maximum; reading: higher = stronger binding
Target: ABI1, truncated, D143A, DHFR fusion (Arabidopsis thaliana)
Setting: methotrexate growth selection, single substitutions
Parent: PYL1, truncated, DHFR fusion (Arabidopsis thaliana); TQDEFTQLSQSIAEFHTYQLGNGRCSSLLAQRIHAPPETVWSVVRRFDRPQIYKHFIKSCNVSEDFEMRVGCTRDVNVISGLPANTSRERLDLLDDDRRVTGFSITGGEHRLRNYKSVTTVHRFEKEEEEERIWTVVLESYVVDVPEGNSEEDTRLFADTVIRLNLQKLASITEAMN; partner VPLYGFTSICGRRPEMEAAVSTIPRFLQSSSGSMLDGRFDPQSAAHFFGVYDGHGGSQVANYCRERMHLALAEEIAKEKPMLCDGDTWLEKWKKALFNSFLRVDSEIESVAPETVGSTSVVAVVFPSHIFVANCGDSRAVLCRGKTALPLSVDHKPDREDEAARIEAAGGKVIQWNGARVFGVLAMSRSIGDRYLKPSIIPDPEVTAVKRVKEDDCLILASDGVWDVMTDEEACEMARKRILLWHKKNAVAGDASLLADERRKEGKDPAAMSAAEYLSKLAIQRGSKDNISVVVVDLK
`D96M` — result for “relative binding score”: 29.7%.
`M68A`: “relative binding score” 74.7%.
`F47L` — result for “relative binding score”: -9.01%.
`E128F`: “relative binding score” 93.2%.
For `R163I`, “relative binding score” read 33.7%.
`N149D`: “relative binding score” 35.4%.
Under “relative binding score”, `A170M` is recorded as 64.8%.
Under “relative binding score”, `V76S` is recorded as 10.4%.
`F56I` — result for “relative binding score”: -7.81%.
For `T39P`, “relative binding score” read 57.8%.
`C60E` — result for “relative binding score”: 4.13%.
`T173D`: “relative binding score” 0.643%.
For `R123E`, “relative binding score” read 92.1%.
For `H110P`, “relative binding score” read 16.2%.
Under “relative binding score”, `R24H` is recorded as 73.1%.
Under “relative binding score”, `S171V` is recorded as 81.4%.

Excerpt of the above (series 2):
Under “normalised enrichment score”, `V9A` is recorded as 0.192.
`K8A` — result for “normalised enrichment score”: -0.231.
For `P6A`, “normalised enrichment score” read -0.225.
`P12A` — result for “normalised enrichment score”: -0.74.
`E10A`: “normalised enrichment score” -0.0082.
`R5A`: “normalised enrichment score” -0.228.
